# Measurements gathered from unrelated publications.
# Lines come from different studies, so protocols differ. Values joined by “and” are separate records of one study, mostly repeats; a detail may differ. ± marks the error that the study gave.
# SLC6A3: Sodium-dependent dopamine transporter (SLC6A3, Homo sapiens, UniProt Q01959)
# UniProt Q01959, sequence (whole entry, unmodified, looked up): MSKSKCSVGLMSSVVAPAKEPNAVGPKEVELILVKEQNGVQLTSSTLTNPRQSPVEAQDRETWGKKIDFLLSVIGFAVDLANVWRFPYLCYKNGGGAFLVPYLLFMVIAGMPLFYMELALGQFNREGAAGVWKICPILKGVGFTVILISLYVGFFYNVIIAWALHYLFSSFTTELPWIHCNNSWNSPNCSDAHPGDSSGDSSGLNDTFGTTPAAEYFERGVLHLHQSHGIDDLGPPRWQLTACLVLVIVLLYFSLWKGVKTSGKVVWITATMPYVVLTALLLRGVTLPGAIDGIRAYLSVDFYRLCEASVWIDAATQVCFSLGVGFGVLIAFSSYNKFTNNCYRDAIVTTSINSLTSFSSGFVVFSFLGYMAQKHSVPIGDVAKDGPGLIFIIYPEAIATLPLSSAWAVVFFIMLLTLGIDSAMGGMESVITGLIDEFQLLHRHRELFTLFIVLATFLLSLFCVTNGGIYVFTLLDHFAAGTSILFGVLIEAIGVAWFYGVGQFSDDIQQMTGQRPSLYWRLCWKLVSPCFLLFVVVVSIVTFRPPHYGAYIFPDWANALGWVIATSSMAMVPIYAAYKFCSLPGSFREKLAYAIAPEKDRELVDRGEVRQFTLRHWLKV
SMILES,target,assay,test system,setting,how to read,endpoint,result
CN[C@]1(c2ccccc2Cl)CCCCC1=O,SLC6A3,"radioligand binding, antagonist, radioligand displacement",,30 µM,,inhibition,35%
c1ccc2cc([C@]34CNC[C@H]3C4)ccc2c1,"SLC6A3 (Homo sapiens, UniProt Q01959, F326A)","inhibitor, [3H]dopamine uptake",,"1 nM, F326A mutant",relative to: no inhibitor,dopamine uptake,131% and 129% and 84.9%
CCC(CNc1nc(-c2cn3ccnc3cc2C)nc2ccccc12)c1ccccc1 (stereo not drawn),SLC6A3,"[3H]WIN35,428 binding, inhibitor",CHO-K1 expressing transporter,,,Emax,48.7 ± 7.58%
COC(=O)[C@H]1[C@@H](OC(=O)c2ccccc2)C[C@@H]2CC[C@H]1N2C,SLC6A3,"transporter current, inhibitor",,added: dopamine 30 µM,,maximal inhibition rate (kapp),1.33 s⁻¹
CCCC(C(=O)c1ccc2c(c1)OCO2)N1CCCC1 (stereo not drawn),SLC6A3,"dopamine-induced inward current, inhibitor, two-electrode voltage clamp",Xenopus oocytes expressing hDAT,"0.5 µM, holding potential -60 mV, added: dopamine 5 µM",,time to steady-state inhibition,> 5 min
Cn1cccc1-c1cccnc1,SLC6A3,binding,,50 µM,,inhibition,-5.88%
CC(C)CC(=O)OC[C@H]1O[C@@](C#N)(c2ccc3c(N)ncnn23)[C@H](O)[C@@H]1O,SLC6A3,,,20 µM,,inhibition,20%
C[C@H](C(=O)N[C@H]1COc2ccccc2[C@@H]1S(C)(=O)=O)c1ccc(F)cc1,SLC6A3,binding,,"10 µM, Eurofins selectivity panel",,inhibition,21%
CCC[C@@H](C(=O)c1ccc(C)cc1)N1CCCC1,SLC6A3,"transporter current, inhibitor",,added: dopamine 30 µM,,maximal inhibition rate (kapp),2.38 s⁻¹
CNCC(=O)c1ccccc1,SLC6A3,"substrate release, releaser",,,relative to: compound EC50 over methcathinone,potency ratio,7.5 fold
CCCC(C(=O)c1ccc2c(c1)OCO2)N1CCCC1 (stereo not drawn),SLC6A3,"transporter current, inhibitor, electrophysiology",human DAT-expressing cells,"current recovery, added: dopamine 30 µM",,koff,0.029 s⁻¹
CCN(CC)CCCC[C@H](NC(=O)[C@H](CC(C)C)NC(=O)[C@H](C)NC(=O)[C@H](Cc1ccccc1)NC(=O)c1ccc(C(C)(C)C)cc1)C(=O)N[C@@H](CO)C(=O)OC,SLC6A3,"antagonist, radioligand binding",,10 µM,relative to: control binding,specific binding,92.7%

# Repeated from above:
SMILES,target,assay,test system,setting,how to read,endpoint,result
C[C@H](C(=O)N[C@H]1COc2ccccc2[C@@H]1S(C)(=O)=O)c1ccc(F)cc1,SLC6A3,binding,,"10 µM, Eurofins selectivity panel",,inhibition,21%
